Measurements from different studies.
Compare with care: the assays were run in different laboratories.

Cc1cccc(-c2[nH]c(CNc3ccccc3F)nc2-c2ccc3ncnn3c2)n1  viability (MM1.S pomalidomide-resistant; XTT; 5 µM; baseline: untreated): 14%
CCn1cc(-c2cc(Cn3ccoc3=N)cc3c2CCN([C@@H](C)c2cc(OC)ccn2)C3=O)c(C(F)(F)F)n1  EC50 (AU565; cell growth, inhibitor; 120 h): 310 nM
O=C(/C=C/C=C/C=C/C1CCCCC1)NC1=C[C@@](O)(/C=C/C=C/C=C/C(=O)NC2=C(O)CCC2=O)[C@@H]2O[C@@H]2C1=O  GI50 (NCI-H2030; cell growth, CellTiter-Glo; 78 h): > 30000 nM
Cc1c(-c2c(-c3ccc(F)o3)sc3ncnc(O[C@H](Cc4ccccc4OCc4ccnn4CC(F)(F)F)C(=O)O)c23)ccc(OCCN2CCN(C)CC2)c1Cl  IC50 (HD-MB03; cell growth; single agent): 916 nM
COc1cnc2cccc(N3CCc4c(cc(Cn5ccnc5C)cc4-c4cn(C)nc4C(F)(F)F)C3=O)c2c1  EC50 (DMS-273; cell growth, inhibitor; 120 h): 3160 nM
Cc1csc(-c2nnc(Nc3ccc(Oc4ncccc4-c4ccnc(N)n4)cc3)c3ccccc23)c1  IC50 (HD-MB03; cell growth; 168 h, DMSO): 1.97 nM
CCn1cc(-c2cc(Cn3ccnc3)cc3c2CCN([C@H](c2cc(OC)ccn2)C2CC2)C3=O)c(C(F)(F)F)n1  EC50 (TE-5; cell growth, inhibitor; 120 h): > 30000 nM
Cn1cc(-c2ccc(-c3cncc(Cl)c3N3CCC4(CCNC4=O)CC3)cc2)cn1  log2 fold change (COLO 205; gene expression, microarray, measured: KLF8 mRNA; concentration not given, 2 h; baseline: untreated cells): 1.1
CS(=O)(=O)c1ccc(C(=O)Nc2ccc(Cl)c(-c3ccccn3)c2)c(Cl)c1  IC50 (HD-MB03; 168 h): inactive

Some of these lines once more:
CCn1cc(-c2cc(Cn3ccoc3=N)cc3c2CCN([C@@H](C)c2cc(OC)ccn2)C3=O)c(C(F)(F)F)n1  EC50 (AU565; cell growth, inhibitor; 120 h): 310 nM
